# Experimental data collected from several papers.
# Lines come from different studies, so protocols differ. “And” joins repeats or separate records; there may be more than shown. ± gives the spread as reported.
SMILES,tested on,assay,system,conditions,how to read,measurement,result
Cc1cc(C(=O)N[C@@H](Cc2cccc3ccccc23)C(=O)N[C@@H](CC(C)C)C(=O)N[C@H](C=O)C[C@@H]2CCCNC2=O)no1,Enterovirus A71,"viral replication, RT-qPCR",RD,three days,,EC90,20 ± 10 nM
O=C(NC1CCN(c2ncnc3[nH]cnc23)CC1)c1cccc(S(=O)(=O)Nc2ccc(Cl)cc2)c1,SARS-CoV-2,viral infection,Wuhan-Hu-1,,,IC50,1400 nM
CC[C@H](C)[C@H](NC(=O)[C@H](C)NC(=O)[C@H](CCC(=O)O)NC(=O)[C@H](CCC(=O)O)NC(=O)[C@H](CC(C)C)NC(=O)[C@H](CCCCN)NC(=O)[C@H](CCCCN)NC(=O)[C@H](CCSC)NC(=O)[C@H](CCC(=O)O)NC(=O)[C@H](Cc1ccc(O)cc1)NC(=O)[C@H](CCC(=O)O)NC(=O)[C@H](CC(C)C)NC(=O)[C@H](CC(=O)O)NC(=O)[C@H](CC(C)C)NC(=O)[C@H](Cc1ccccc1)NC(=O)[C@@H](NC(=O)[C@@H](NC(=O)[C@H](CC(N)=O)NC(=O)[C@@H](NC(=O)[C@H](CCC(N)=O)NC(=O)[C@H](CC(=O)O)NC(=O)[C@H](CC(C)C)NC(=O)[C@@H](N)CO)[C@@H](C)CC)C(C)C)[C@@H](C)O)C(=O)N[C@@H](CCCCN)C(=O)N[C@@H](CCCCN)C(=O)N[C@@H](CC(C)C)C(=O)N[C@@H](CCC(=O)O)C(=O)N[C@@H](CCC(=O)O)C(=O)N[C@@H](C)C(=O)N[C@@H](Cc1ccc(O)cc1)C(=O)N[C@H](C(=O)N[C@@H](CC(=O)O)C(=O)N[C@@H](CC(C)C)C(=O)N[C@@H](CCCCN)C(=O)N[C@@H](CCC(=O)O)C(=O)N[C@@H](CC(C)C)C(=O)O)[C@@H](C)CC,SARS-CoV-2 XBB.1.5 pseudovirus,"pseudovirus infection, inhibitor, luciferase",Caco-2,24 h,,IC50,1910 nM
Nc1ccc([As]=O)cc1 (stereo not drawn),DLD-1,"cell viability, MTS",,,,IC50,2170 ± 210 nM
Cc1ccc(S(=O)(=O)Nc2cccc(C(=O)NC3CCN(c4ncnc5[nH]cnc45)CC3)c2)cc1,monkeypox virus E1/E12,,,50 µM,,inhibition,16.3% and 17%
CC[C@H](C)[C@H](NC(=O)[C@H](C)NC(=O)[C@H](CCC(=O)O)NC(=O)[C@H](CCC(=O)O)NC(=O)[C@H](CC(C)C)NC(=O)[C@H](CCCCN)NC(=O)[C@H](CCCCN)NC(=O)[C@H](CCSC)NC(=O)[C@H](CCC(=O)O)NC(=O)[C@H](Cc1ccc(O)cc1)NC(=O)[C@H](CCC(=O)O)NC(=O)[C@H](CC(C)C)NC(=O)[C@H](CC(=O)O)NC(=O)[C@H](CC(C)C)NC(=O)[C@H](Cc1ccccc1)NC(=O)[C@H](Cc1ccc(O)cc1)NC(=O)[C@@H](NC(=O)[C@H](CC(N)=O)NC(=O)[C@@H](NC(=O)[C@H](CCC(N)=O)NC(=O)[C@H](CC(=O)O)NC(=O)[C@H](CC(C)C)NC(=O)[C@@H](N)CO)[C@@H](C)CC)C(C)C)C(=O)N[C@@H](CCCCN)C(=O)N[C@@H](CCCCN)C(=O)N[C@@H](CC(C)C)C(=O)N[C@@H](CCC(=O)O)C(=O)N[C@@H](CCC(=O)O)C(=O)N[C@@H](C)C(=O)N[C@@H](Cc1ccc(O)cc1)C(=O)N[C@H](C(=O)N[C@@H](CC(=O)O)C(=O)N[C@@H](CC(C)C)C(=O)N[C@@H](CCCCN)C(=O)N[C@@H](CCC(=O)O)C(=O)N[C@@H](CC(C)C)C(=O)O)[C@@H](C)CC,SARS-CoV-2 JN.1 pseudovirus,"pseudovirus infection, inhibitor, luciferase",Caco-2,"24 h, dual mutations",,IC50,38.1 nM
CC(C)[C@H]1CC[C@@H](N2CCC3(CC2)C(=O)NCN3c2ccccc2)CC1,,twitch contraction,"NOP(+/+) and NOP(-/-) mice, mouse vas deferens",,reference: NOP(+/+) over NOP(-/-),selectivity ratio,3
CC[C@H](C)[C@H](NC(=O)[C@H](C)NC(=O)[C@H](CCC(=O)O)NC(=O)[C@H](CCC(=O)O)NC(=O)[C@H](CC(C)C)NC(=O)[C@H](CCCCN)NC(=O)[C@H](CCCCN)NC(=O)[C@H](CCSC)NC(=O)[C@H](CCC(=O)O)NC(=O)[C@H](Cc1ccc(O)cc1)NC(=O)[C@H](CCC(=O)O)NC(=O)[C@H](CC(C)C)NC(=O)[C@H](CC(=O)O)NC(=O)[C@H](CC(C)C)NC(=O)[C@H](Cc1ccccc1)NC(=O)[C@H](Cc1ccccc1)NC(=O)[C@@H](NC(=O)[C@H](CC(N)=O)NC(=O)[C@@H](NC(=O)[C@H](CCC(N)=O)NC(=O)[C@H](CC(=O)O)NC(=O)[C@H](CC(C)C)NC(=O)[C@@H](N)CO)[C@@H](C)CC)C(C)C)C(=O)N[C@@H](CCCCN)C(=O)N[C@@H](CCCCN)C(=O)N[C@@H](CC(C)C)C(=O)N[C@@H](CCC(=O)O)C(=O)N[C@@H](CCC(=O)O)C(=O)N[C@@H](C)C(=O)N[C@@H](Cc1ccc(O)cc1)C(=O)N[C@H](C(=O)N[C@@H](CC(=O)O)C(=O)N[C@@H](CC(C)C)C(=O)N[C@@H](CCCCN)C(=O)N[C@@H](CCC(=O)O)C(=O)N[C@@H](CC(C)C)C(=O)O)[C@@H](C)CC,SARS-CoV-2 JN.1 pseudovirus,"pseudovirus infection, inhibitor, luciferase",Caco-2,"24 h, dual mutations",,IC50,562 nM
CC[C@H](C)[C@H](NC(=O)[C@H](CC(C)C)NC(=O)[C@H](Cc1ccc(OP(=O)(O)O)cc1)NC(=O)[C@H](CCC(=O)O)NC(=O)[C@H](CC(=O)O)NC(=O)[C@H](C)NC(=O)[C@H](CC(=O)O)NC(=O)[C@@H](NC(=O)[C@H](CC(C)C)NC(=O)CCCC[C@@H]1SC[C@@H]2NC(=O)N[C@@H]21)C(C)C)C(=O)N1CCC[C@H]1C(=O)N[C@@H](CCC(N)=O)C(=O)N[C@@H](CCC(N)=O)C(=O)NCC(=O)O,YopH wild type,binding,,,reference: wild type over mutant enzyme,apparent KD ratio,4.5 fold
O=C(NC1CCN(c2ncnc3[nH]cnc23)CC1)c1cccc(NS(=O)(=O)c2ccc([N+](=O)[O-])cc2)c1,SARS-CoV-2,,Wuhan-Hu-1,200 µM,reference: untreated infected cells,relative infection,7.62%
CC[C@H](C)[C@H](NC(=O)[C@H](C)NC(=O)[C@H](CCC(=O)O)NC(=O)[C@H](CCC(=O)O)NC(=O)[C@H](CC(C)C)NC(=O)[C@H](CCCCN)NC(=O)[C@H](CCCCN)NC(=O)[C@H](CCSC)NC(=O)[C@H](CCC(=O)O)NC(=O)[C@H](Cc1ccc(O)cc1)NC(=O)[C@H](CCC(=O)O)NC(=O)[C@H](CC(C)C)NC(=O)[C@H](CC(=O)O)NC(=O)[C@H](CC(C)C)NC(=O)[C@H](Cc1ccccc1)NC(=O)[C@@H](NC(=O)[C@@H](NC(=O)[C@H](CC(N)=O)NC(=O)[C@@H](NC(=O)[C@H](CCC(N)=O)NC(=O)[C@H](CC(=O)O)NC(=O)[C@H](CC(C)C)NC(=O)[C@@H](N)CO)[C@@H](C)CC)C(C)C)[C@@H](C)O)C(=O)N[C@@H](CCCCN)C(=O)N[C@@H](CCCCN)C(=O)N[C@@H](CC(C)C)C(=O)N[C@@H](CCC(=O)O)C(=O)N[C@@H](CCC(=O)O)C(=O)N[C@H](C(=O)N[C@@H](Cc1ccc(O)cc1)C(=O)N[C@H](C(=O)N[C@@H](CC(=O)O)C(=O)N[C@@H](CC(C)C)C(=O)N[C@@H](CCCCN)C(=O)N[C@@H](CCC(=O)O)C(=O)N[C@@H](CC(C)C)C(=O)O)[C@@H](C)CC)[C@@H](C)O,SARS-CoV-2 Alpha pseudovirus,"pseudovirus infection, inhibitor, luciferase",Caco-2,24 h,,IC50,1210 nM
Cc1ccccc1S(=O)(=O)Nc1cccc(C(=O)NC2CCN(c3ncnc4[nH]cnc34)CC2)c1,SARS-CoV-2,,Wuhan-Hu-1,22.22 µM,reference: untreated infected cells,relative infection,31.8%
CC[C@H](C)[C@H](NC(=O)[C@H](C)NC(=O)[C@H](CCC(=O)O)NC(=O)[C@H](CCC(=O)O)NC(=O)[C@H](CC(C)C)NC(=O)[C@H](CCCCN)NC(=O)[C@H](CCCCN)NC(=O)[C@H](CCSC)NC(=O)[C@H](CCC(=O)O)NC(=O)[C@H](Cc1ccc(O)cc1)NC(=O)[C@H](CCC(=O)O)NC(=O)[C@H](CC(C)C)NC(=O)[C@H](CC(=O)O)NC(=O)[C@H](CC(C)C)NC(=O)[C@H](Cc1ccccc1)NC(=O)[C@@H](NC(=O)[C@@H](NC(=O)[C@H](CC(N)=O)NC(=O)[C@@H](NC(=O)[C@H](CCC(N)=O)NC(=O)[C@H](CC(=O)O)NC(=O)[C@H](CC(C)C)NC(=O)[C@H](CO)NC(=O)[C@H](CC(C)C)NC(=O)[C@H](CC(=O)O)NC(=O)[C@@H]1CCCN1C(=O)[C@H](C)N)[C@@H](C)CC)C(C)C)[C@@H](C)O)C(=O)N[C@@H](CCCCN)C(=O)N[C@@H](CCCCN)C(=O)N[C@@H](CC(C)C)C(=O)N[C@@H](CCC(=O)O)C(=O)N[C@@H](CCC(=O)O)C(=O)N[C@@H](CO)C(=O)N[C@@H](Cc1ccc(O)cc1)C(=O)N[C@H](C(=O)N[C@@H](CC(=O)O)C(=O)N[C@@H](CC(C)C)C(=O)N[C@@H](CCCCN)C(=O)N[C@@H](CCC(=O)O)C(=O)N[C@@H](CC(C)C)C(=O)O)[C@@H](C)CC,SARS-CoV-2 Beta pseudovirus,"pseudovirus infection, inhibitor, luciferase",Caco-2,24 h,,IC50,420 nM
O=C(NC1CCN(c2ncnc3[nH]cnc23)CC1)c1cccc(NS(=O)(=O)c2ccc(Cl)cc2)c1,SARS-CoV-2,,Wuhan-Hu-1,7.407 µM,reference: untreated infected cells,relative infection,27.4%
CCCN(C)Cc1onc(-c2cccc(Cl)c2)c1-c1ccnc(N[C@@H]2CCN(C(=O)c3ccn(C)n3)C2)n1,Plasmodium falciparum,parasite growth,3D7 A10,"72 h, asexual blood stage",,EC50,11.7 ± 6.73 µM
